Measurements pooled from the literature.
Protocols differ between the studies behind these lines. Numbers after ± are the reported error. ≈ marks a conversion by molar mass, not a printed value.

| SMILES | test | test system | setting | how to read | measurement | result |
| --- | --- | --- | --- | --- | --- | --- |
| COc1cc2c(cc1OC)CN(CCCCn1ccc3cc(OCC[18F])ccc31)C2 | – | ICR mice, male | intravenous, 30 min | – | brain/blood ratio | 2.29 |
| CC12CC(c3ccc(S(C)(=O)=O)cc3)C3=C4CCC(=O)C=C4CCC3C1CCC2(O)C(F)(F)C(F)(F)F (stereo not shown) | item: total radioactivity | human, whole blood and plasma | oral, 5 mg, 48 h, [14C]-labelled, single dose, geometric mean | baseline: blood over plasma | blood to plasma ratio | 0.79 |
| CC(C)(Sc1ccncc1-c1ccc(C#N)c2ccccc12)C(=O)OC1OC(C(=O)O)C(O)C(O)C1O (stereo not shown) | – | adult men, urine | oral, 15 mg verinurad, moderate renal impairment | baseline: impaired over normal renal function | renal clearance ratio (0-72 h) | 40% |
| NC12CNCCNCC(NCc3ccc(CNC(=O)CCCC(=O)NCc4ccc(-c5nncnn5)cc4)cc3)(CNCCNC1)CNCCNC2.[64Cu+2] | OLINDA dosimetry | lower large intestine wall | pretargeting, 48-h interval | – | mean absorbed dose | 0.0456 rad/mCi |
| CC(C)(O)c1ncc([S@](N)(=O)=NC(=O)Nc2c3c(cc4c2CCC4)CCC3)s1 | – | healthy human, urine and plasma | oral, day 1, multiple ascending dose | – | renal clearance | 0.06 to 0.0833 mL/min |
| N=C(N)NCCC[C@@H]1NC(=O)[C@H](Cc2c[nH]c3ccccc23)NC(=O)[C@@H](CC2CCCCC2)NC(=O)[C@@H]2CCCN2C(=O)[C@@H](NC(=O)CCc2ccccc2)CCCNC1=O | – | C57BL/6J mouse, spinal cord | subcutaneous, 1 mg/kg, single dose, two-compartment model | – | alpha distribution rate constant | 1.28 h⁻¹ |
| CC(C)[C@H](NC(=O)CNC(=O)[C@H](CCC(N)=O)NC(=O)[C@H](C)N)C(=O)O | – | human | 10 mg/kg, multiple dosing | up to | time of quantifiable concentrations | ≤ 30 min |
| Cc1ccccc1/N=N/c1ccc(/N=N/c2c(O)ccc3ccccc23)c(C)c1 | – | rat whole blood QC samples | 5.0 µg/L, 8 h, room temperature, short-term stability | – | measured concentration | 5.29 µg/L |
| CCCCCCCC(=O)OC[C@H](NC(=O)[C@H](CO)NC(=O)CN)C(=O)N[C@@H](Cc1ccccc1)C(=O)N[C@@H](CC(C)C)C(=O)N[C@@H](CO)C(=O)N1CCC[C@H]1C(=O)N[C@@H](CCC(=O)O)C(=O)N[C@@H](Cc1cnc[nH]1)C(=O)N[C@@H](CCC(N)=O)C(=O)N[C@@H](CCCNC(=N)N)C(=O)N[C@H](C(=O)N[C@@H](CCC(N)=O)C(=O)N[C@@H](CCC(N)=O)C(=O)N[C@@H](CCCNC(=N)N)C(=O)N[C@@H](CCCCN)C(=O)N[C@@H](CCC(=O)O)C(=O)N[C@@H](CO)C(=O)N[C@@H](CCCCN)C(=O)N[C@@H](CCCCN)C(=O)N1CCC[C@H]1C(=O)N1CCC[C@H]1C(=O)N[C@@H](C)C(=O)N[C@@H](CCCCN)C(=O)N[C@@H](CC(C)C)C(=O)N[C@@H](CCC(N)=O)C(=O)N1CCC[C@H]1C(=O)N[C@@H](CCCNC(=N)N)C(=O)O)C(C)C | beat-to-beat plethysmography | human chronic HFrEF patients | intravenous infusion, 0.1 µg/kg/min, after 60 min infusion | – | blood pressure dBP | 56.5 ± 8.7 mm Hg |
| CCCC[C@@H]1NC(=O)[C@@H](NC(=O)[C@H](CCC(=O)O)NC(=O)CNC(=O)CN2CCN(CC(=O)O)CCN(CC(=O)O)CCN(CC(=O)O)CC2)CCCCNC(=O)C[C@@H](C(N)=O)NC(=O)[C@H](C(C)C)NC(=O)[C@@H]2CCCN2C(=O)[C@H](CCCNC(=N)N)NC(=O)CNC(=O)[C@H](Cc2c[nH]c3ccccc23)NC(=O)[C@H](CCCNC(=N)N)NC(=O)[C@@H](Cc2ccccc2)NC(=O)[C@H](Cc2c[nH]cn2)NC(=O)[C@H](CCC(=O)O)NC1=O [gallium-67 labelled] | – | C57 mice with B16/F1 melanoma | intravenous, 0.037 MBq/mouse, 2 h | baseline: tumour over muscle | tumour to muscle ratio | 323 |
| COC(=O)C(c1ccccc1Cl)N1CCC(SCC(=O)c2cccc(OC)c2)C(=CC(=O)O)C1 (mixture of isomers) | HPLC-MS/MS | feline citrate plasma | 100 ng/mL, 12 h, 4 °C, storage stability | – | deviation from nominal | 0% |
| O=C([O-])CN1CCN(CC(=O)[O-])CCN(CC(=O)NC[C@H]2CC[C@H](C(=O)N[C@H](Cc3cnc4ccccc4c3)C(=O)NCCCC[C@H](NC(=O)N[C@@H](CCC(=O)O)C(=O)O)C(=O)O)CC2)CCN(CC(=O)[O-])CC1.[64Cu+2] | PET/CT, OLINDA/EXM dosimetry | healthy human volunteers, red marrow | – | – | absorbed dose | 0.0115 mGy/MBq |
| Oc1c(Br)cc(Br)c2nc3cc(Cc4ccccc4)ccc3nc12 | – | human red blood cells | 200 µM, 1 h, pH 7.2, 37 °C | – | hemolysis | ≤ 1% |
| CC[C@H](C)[C@H](NC(=O)[C@H](CO)NC(=O)[C@H](CCCNC(=N)N)NC(C)=O)C(=O)N[C@H]1CSSC[C@@H](C(=O)N[C@H](C(=O)NCCOCCOCCOCCOCCOCCOCCOCCOCCC(N)=O)[C@@H](C)O)NC(=O)[C@H](CCCNC(=N)N)NC(=O)[C@H](Cc2c[nH]cn2)NC(=O)[C@H](C)NC(=O)CNC(=O)[C@H](Cc2c[nH]c3ccccc23)NC(=O)[C@H](CC(=O)O)NC(=O)[C@H](CCC(N)=O)NC(=O)[C@H](Cc2c[nH]c3ccccc23)NC(=O)[C@H](C(C)C)NC1=O | UV absorbance | PBS | pH 7.4, slope 1 is full solubility | – | apparent solubility slope | 0.92 |
| CCCC[C@H](NC(=O)CNC(=O)CNC(=O)CN1CCN(CC(=O)O)CCN(CC(=O)O)CCN(CC(=O)O)CC1)C(=O)N[C@H]1CC(=O)NCCCC[C@@H](C(N)=O)NC(=O)[C@H](Cc2c[nH]c3ccccc23)NC(=O)[C@H](CCCNC(=N)N)NC(=O)[C@@H](Cc2ccccc2)NC(=O)[C@H](Cc2c[nH]cn2)NC1=O [lead-203 labelled] | – | C57 mouse, liver | intravenous, 0.056 MBq, 24 h | – | tissue uptake | 1.04 ± 0.21 %ID/g |
| COC(=O)/C=C/C(=O)c1ccc(OC)cc1 | LC-MS/MS | rat plasma | 40 ng/mL, time not given, 3 freeze-thaw cycles | – | recovery | 95 ± 2.82% |
| C=CC(=O)Nc1cc(Nc2nccc(-c3cn(C)c4ccccc34)n2)c(OC)cc1N(C)CCNC | UHPLC-MS/MS | human, plasma | oral, 80 mg daily | – | steady-state trough concentration | 18 ng/mL |

| SMILES | test | test system | setting | how to read | measurement | result |
| --- | --- | --- | --- | --- | --- | --- |
| COC[C@@H](CC(C)C)NC(=O)c1ccc(CO)c(CO)c1 | LC-MS | human liver microsomes | 10 µM of parent drug, 60 min, pH 7.4, together with: NADPH | baseline: parent drug at time zero | metabolite peak area | 1.1% |
| CCCC[C@H](NC(=O)CNC(=O)CNC(=O)CN1CCN(CC(=O)O)CCN(CC(=O)O)CC1)C(=O)N[C@H]1CC(=O)NCCCC[C@@H](C(N)=O)NC(=O)[C@H](Cc2c[nH]c3ccccc23)NC(=O)[C@H](CCCNC(=N)N)NC(=O)[C@@H](Cc2ccccc2)NC(=O)[C@H](Cc2c[nH]cn2)NC1=O [gallium-67 labelled] | – | C57 mice, female, B16/F1 melanoma, tumour over blood | intravenous, 0.037 MBq, 4 h | – | tumour to tissue uptake ratio | 17.8 |
| CCC(=O)N[C@@H](C)C(=O)OCC(=O)N[C@@H](C)C(=O)O | – | water | pH 5, 50 °C | – | depolymerization half-life | 157 h |
| NCCCC[C@H](NC(=O)[C@@H]1CCCN1C(=O)[C@@H]1CSSC[C@H](N)C(=O)N[C@@H](Cc2ccc(O)cc2)C(=O)N[C@@H](Cc2ccccc2)C(=O)N[C@@H](CCC(N)=O)C(=O)N[C@@H](CC(N)=O)C(=O)N1)C(=O)NCC(N)=O | – | Sprague Dawley rats | sc, 0.2 mg/kg terlipressin, metabolite, normalised to 0.1 mg/kg | – | dose-normalised AUC | 2.5 ng·h/mL |
| O=[11C](OC(C(F)(F)F)C(F)(F)F)N1CCC(CNS(=O)(=O)c2ccc(Cl)cc2)CC1 | PET | rhesus monkey, male, pons | iv, 3.71 mCi | – | uptake | 0.55 SUV |
| Cc1ccc(OCC(=O)O)cc1 | – | Sprague-Dawley rat, female, plasma | oral gavage, 10 mg/kg of parent drug | baseline: compound over parent drug | AUC(0-last) ratio | 979 |
| O=C(Nc1nccs1)C(c1cc(F)ccc1O)N1Cc2ccccc2C1=O (stereo not shown) | – | mouse plasma | 1500 ng/mL, 5 h, room temperature, short-term stability, high QC | – | recovery | 102 ± 2.3% |
| C=C1C(=O)O[C@@H]2C[C@H](C)[C@@H]3C[C@H](O)[C@H](O)[C@@]3(C)C[C@H]12 | propidium iodide flow cytometry | primary splenocytes, BALB/c mouse | 48 h, 10% fetal calf serum | – | CC50 | 7.8 ± 0.2 mg/L (≈ 29.3 µM) |
| N=C(N)NCCC[C@H](NC(=O)[C@@H]1CCCN1C(=O)[C@H](Cc1ccccc1)NC(=O)[C@@H]1CCCN1C(=O)[C@H](Cc1c[nH]cn1)NC(=O)[C@@H](N)Cc1ccccc1)C(=O)O | – | Sprague-Dawley rat male, plasma | intravenous, 10 mg/kg | – | elimination rate constant | 0.11 ± 0.03 min⁻¹ |
| O=C(O)CN1CCCN2CCN(CC1)CCN(CC(=O)O)CC2 [copper-64 labelled] | – | Lewis rat, male, juvenile, blood | intravenous, 100 µCi, 24 h | – | blood uptake | 0.01 ± 0.002 %ID/g |
| Cc1ccc(-c2ccc(-c3cc4sccc4o3)cn2)nc1 | – | acetonitrile | zinc(II) complex, together with: quinine bisulfate reference | – | fluorescence quantum yield | 0.55 |
| [11CH3]c1ccc2nc(C3CCC3)n(-c3ccc4[nH]ncc4c3)c2n1 | – | human female, lungs | – | – | absorbed radiation dose | 4.6 µSv/MBq |
| COc1cc(NC(C)=O)c2c(c1O)-c1c(OC)c(OC)cc3c1C(C2)N(C)CC3 (stereo not shown) | – | rat brain homogenate | 50 µg/mL, 24 h, room temperature, post-preparative storage | – | remaining compound | 96.3 ± 2% |
| NS(=O)(=O)c1ccc(-n2nc(C(F)(F)F)c(O)c2-c2ccc(F)cc2F)cc1 | substrate | male beagle dog liver microsomes | 20 µM, pH 7.4, mean of 0-90 and 0-60 min | – | metabolite formation rate | 4.3 pmol/min/mg |
| C=C(c1ncc(C(=O)O)cn1)c1cc2c(cc1C)C(C)(C)CCC2(C)C | – | Sprague-Dawley rat, male | oral, 100 mg/kg, 2 h, sesame oil vehicle | – | blood triglycerides | 130 ± 50.8 mg/dL |
| CC(C)c1cnc(-c2cc(Cl)ccc2F)cc1Nc1ccncc1C(=O)NC(CO)CO | item: any event, worst grade | human patients | oral, dose not given, grade 1 | – | patients with related SAE | 0% |
| Cn1c(=O)oc2ccc(-c3ccc(CC(C#N)NC(=O)C4CNCCCO4)c(F)c3)cc21 (stereo not shown) | item: blood triglycerides increased | human | 60 mg single dose, fasted | – | subjects with TEAE | 33.3% |

For quick reference, copied from above:
| SMILES | test | test system | setting | how to read | measurement | result |
| --- | --- | --- | --- | --- | --- | --- |
| Cc1ccc(-c2ccc(-c3cc4sccc4o3)cn2)nc1 | – | acetonitrile | zinc(II) complex, together with: quinine bisulfate reference | – | fluorescence quantum yield | 0.55 |
| [11CH3]c1ccc2nc(C3CCC3)n(-c3ccc4[nH]ncc4c3)c2n1 | – | human female, lungs | – | – | absorbed radiation dose | 4.6 µSv/MBq |
